Measured values pooled from the literature.
± marks the error that the study gave. Values after ≈ are worked out from the molar mass of the structure shown.

Cc1c(-c2cccc(C3=NCCN3)c2)oc(-c2cccc(C3=NCCN3)c2)c1C  ΔTm (HSP90B promoter G-quadruplex DNA; G-quadruplex stabilisation, FRET melting; 1 µM): 23.7 °C
O=C([O][Ti+2][O]C(=O)c1ccc(P(c2ccccc2)c2ccccc2)cc1)c1ccc(P(c2ccccc2)c2ccccc2)cc1.[Cl][Au].[Cl][Au].c1cc[cH-]c1.c1cc[cH-]c1  inhibition (thioredoxin reductase human; enzyme activity, inhibitor; CAKI-1; 5 µM, 5 h): 31.6%
Cc1ccc(NC(=O)c2c(C)oc3ccc(O)c(CN4CCCCCC4)c23)cc1  composite Z-score (miR-21 RNA; binding, small molecule microarray; direction not given): -0.18
CCC(=O)N(C)c1ccc(Cl)c(Cl)c1  fold activation (CAR3 constitutive androstane receptor, human; reporter gene, agonist; 1.0 µM; baseline: vehicle): 0.82 fold
CC(C)C[C@H](NC(=O)[C@H](CO)NC(=O)[C@H](CCCNC(=N)N)NC(=O)[C@H](CC(=O)O)NC(=O)[C@H](CCC(=O)O)NC(=O)[C@H](C)NC(=O)[C@@H]1CCCN1C(=O)[C@H](C)NC(=O)[C@H](CCC(=O)O)NC(=O)[C@@H]1CCCN1C(=O)[C@@H]1CCCN1)C(N)=O  dopamine level (dopamine system; rhesus monkey, contralateral putamen, caudate, pallidus; intranasal, dose not given, repeated dose escalation; baseline: vehicle): no effect
CO[C@@H]1[C@H](O)[C@@H](COP(=O)(O)OP(=O)([S-])OP(=O)(S)OC[C@H]2O[C@@H](n3cnc4c(=O)[nH]c(N)nc43)[C@H](O)[C@@H]2O)O[C@H]1n1c[n+](C)c2c(O)nc(N)nc21 (mixture of isomers)  decapping (Schizosaccharomyces pombe Dcp1/Dcp2 complex; substrate; capped short RNA; 30 min, 30 °C): 36.7 ± 3.9%
Cc1ncsc1-c1ccc(CNC(=O)[C@@H]2C[C@@H](O)CN2C(=O)[C@@H](NC(=O)CN2CCN(C3CN(CCNC(=O)C[C@@H]4N=C(c5ccc(Cl)cc5)c5c(sc(C)c5C)-n5c(C)nnc54)C3)CC2)C(C)(C)C)cc1  degradation (BRD3 (Spodoptera frugiperda); degrader, targeted LC-MS; Sf9; 1 µM, 24 h): > 85%
C1=[N+]2CCC[N+]3=Cc4ccc5[n]4[Au-]23[n]2c1ccc2-c1nc2ccccc2nc1-5.F[P-](F)(F)(F)(F)F  EC50 (human ACTN3 291-bp dsDNA; DNA melting temperature, high resolution melt): 9000 nM
CC[C@H](C)[C@H](NC(=O)[C@H](CCC(=O)O)NC(=O)[C@H](CO)NC(=O)[C@@H](NC(=O)[C@@H](N)CO)C(C)C)C(=O)N[C@@H](CCC(N)=O)C(=O)N[C@@H](CC(C)C)C(=O)N[C@@H](CCSC)C(=O)N[C@@H](Cc1c[nH]cn1)C(=O)N[C@@H](CC(N)=O)C(=O)N[C@@H](CC(C)C)C(=O)NCC(=O)N[C@@H](CCCCN)C(=O)N[C@@H](Cc1c[nH]cn1)C(=O)N[C@@H](CC(C)C)C(=O)N[C@@H](CC(N)=O)C(=O)N[C@@H](CO)C(=O)N[C@@H](CCSC)C(=O)N[C@@H](CCC(=O)O)C(=O)N[C@@H](CCCNC(=N)N)C(=O)N[C@H](C(=O)N[C@@H](CCC(=O)O)C(=O)N[C@@H](Cc1c[nH]c2ccccc12)C(=O)N[C@@H](CC(C)C)C(=O)N[C@@H](CCCNC(=N)N)C(=O)N[C@@H](CCCCN)C(=O)N[C@@H](CCCCN)C(=O)N[C@@H](CC(C)C)C(=O)N[C@@H](CCC(N)=O)C(=O)N[C@@H](CC(=O)O)C(=O)N[C@H](C(=O)N[C@@H](Cc1c[nH]cn1)C(=O)N[C@@H](CC(N)=O)C(=O)N[C@@H](Cc1ccccc1)C(=O)O)C(C)C)C(C)C  Pearson correlation coefficient (GFP-PTH1 receptor; co-localization, confocal microscopy; HEK293; after ligand washout): 0.767 ± 0.03
COCc1ccc(C=O)n1CCCC(=O)O  concentration doubling activity (quinone reductase; inducer; Hepa-1c1c7; 48 h): 2.4 µM
Nc1ncc(-c2nc(N3CCOCC3)nc(N3CCN(C(=O)CCC(=O)NCCCCCCCCCNc4cccc5c4C(=O)N(C4CCC(=O)NC4=O)C5=O)CC3)n2)c(C(F)F)n1 (stereo not shown)  degradation (PI3K p110alpha; degrader, Western blot; MCF7 and T47D; concentration not given): active
[64Cu+2].c1ccc(CNCc2ccc(CN3CCCN4CCNCCCN(CC4)CC3)cc2)nc1  uptake decrease on blocking (CXCR4 (human); NOD/SCID mice, U87 xenografts, kidneys; dose not given, 90 min post-injection, together with: 25 mg/kg AMD3465; baseline: non-blocked): 23%
CCCCCCCCCCCCCCC(Br)C(=O)O[C@@H](C(=O)O[C@H]1C[C@@]2(O)[C@@H](OC(=O)c3ccccc3)[C@@H]3[C@]4(OC(C)=O)CO[C@@H]4C[C@H](O)[C@@]3(C)C(=O)[C@H](OC(C)=O)C(=C1C)C2(C)C)[C@@H](NC(=O)c1ccccc1)c1ccccc1 (stereo partly shown)  Vmax of tubulin polymerization (tubulin; 34 µM, 37 °C, together with: tubulin 3 mg/mL): 30.5 ± 2.1 mOD/min
N=C(N)NCCCC(N)C(=O)NC[C@@H]1O[C@H](O[C@H]2[C@@H](O)[C@H](O[C@@H]3[C@@H](O)[C@H](NC(=O)C(N)CCCNC(=N)N)C[C@H](N)[C@H]3O[C@H]3O[C@H](CNC(=O)C(N)CCCNC(=N)N)[C@@H](O)[C@H](O)[C@H]3NC(=O)C(N)CCCNC(=N)N)O[C@@H]2CO)[C@H](NC(=O)C(N)CCCNC(=N)N)[C@@H](O)[C@@H]1O (stereo partly shown)  inhibition (Escherichia coli RNase P holoenzyme; pre-tRNA processing, inhibitor; 1 µM, 10 mM Mg2+ high-salt buffer): inhibited
CN1CCCNC(=O)c2cccc(c2)C(=O)NCCCN(C)CCCNc2cccc3c2C(=O)c2cccc(c2C3=O)NCCC1  PCR inhibition threshold (duplex DNA; TRAP assay PCR; no inhibition up to value): > 50 µM
COc1ccc(-c2nc(CC(=O)NC(c3nc4ccccc4[nH]3)C(C)C)cs2)cc1OC (stereo not shown)  EC50 (human CD27; NF-kB reporter gene, agonist; Jurkat CD27 reporter cells): 840 nM
CC[C@H](C)[C@@H]1NC(=O)[C@H](CCCNC(=N)N)NC(=O)[C@H](C)NC(=O)CNC(=O)[C@H](CCCCN)NC(=O)[C@H](CCCNC(=N)N)NC(=O)[C@H](C(C)C)NC(=O)[C@H](C)NC(=O)[C@@H]2CSSC[C@@H]3NC(=O)[C@H](CO)NC(=O)[C@H]([C@@H](C)O)NC(=O)CNC(=O)[C@H](CCCNC(=N)N)NC(=O)[C@@H]4CCCN4C(=O)[C@H](CSSC[C@@H](C(=O)N[C@@H](CC(C)C)C(=O)O)NC(=O)[C@H](CCCCN)NC(=O)[C@H](CC(C)C)NC(=O)[C@H](CC(C)C)NC(=O)[C@H](Cc4ccccc4)NC(=O)[C@H](CO)NC(=O)[C@H](CC(N)=O)NC3=O)NC(=O)[C@H](CC(=O)O)NC(=O)[C@H](CSSC[C@H](NC(=O)[C@H](CCSC)NC(=O)[C@@H]3CCCN3C(=O)[C@@H](NC(=O)[C@H](CCC(N)=O)NC(=O)CNC(=O)[C@H](Cc3ccc(O)c(I)c3)NC(=O)[C@@H](N)CCCCN)C(C)C)C(=O)N[C@@H](CC(=O)O)C(=O)N[C@@H](C)C(=O)NCC(=O)N[C@@H](CCC(=O)O)C(=O)N[C@@H](CCC(N)=O)C(=O)N2)NC(=O)[C@H](CC(C)C)NC(=O)[C@H](CCCCN)NC(=O)CNC1=O  Kd (CART binding site, rat; undifferentiated PC-12; pH 7.4): 0.53 ± 0.06 nM
NC[C@@H]1O[C@H](O[C@H]2[C@@H](O)[C@H](O[C@@H]3[C@@H](O)[C@H](N)C[C@H](N)[C@H]3O[C@H]3O[C@H](CN)[C@@H](O)[C@H](O)[C@H]3N)O[C@@H]2CO)[C@H](N)[C@@H](O)[C@@H]1O  Tm (poly(dA)•2poly(dT) triplex; concentration not given, pH 5.5, KCl 140 mM): 34.4 °C
Cc1ccc2c(c1)nc(/C=C/c1cccc3cccnc13)n2-c1cccc(OCCCN2CCN(C)CC2)c1  potency loss (PDE10A F729A mutant; enzyme activity, inhibitor; baseline: mutant over wild type): 58 fold
CCCCO[C@H]1[C@H](O)[C@@H](N)[C@@H](O[C@H]2[C@H](O[C@@H]3O[C@H](CO)[C@@H](O[C@H]4O[C@@H](CN)[C@@H](O)[C@H](O)[C@H]4N)[C@H]3O)[C@@H](O)[C@H](N)C[C@@H]2N)O[C@@H]1CO  IC50 (rabbit reticulocyte ribosome; luciferase translation, cell-free translation; rabbit reticulocyte lysate): 49.8 ± 5.47 µg/mL (≈ 74.2 µM)
CN(CC(=O)c1ccc2[nH]c(=O)[nH]c2c1)Cc1ccco1  inhibition (uracil-DNA glycosylase; enzyme activity, inhibitor; concentration not given): no inhibition
CN1CCCNC(=O)CC2(CCCCC2)CC(=O)NCCCN(C)CCCNc2cccc3c2C(=O)c2cccc(c2C3=O)NCCC1  PCR inhibition threshold (duplex DNA; TRAP assay PCR; no inhibition up to value): > 150 µM

A few entries again:
Cc1c(-c2cccc(C3=NCCN3)c2)oc(-c2cccc(C3=NCCN3)c2)c1C  ΔTm (HSP90B promoter G-quadruplex DNA; G-quadruplex stabilisation, FRET melting; 1 µM): 23.7 °C
O=C([O][Ti+2][O]C(=O)c1ccc(P(c2ccccc2)c2ccccc2)cc1)c1ccc(P(c2ccccc2)c2ccccc2)cc1.[Cl][Au].[Cl][Au].c1cc[cH-]c1.c1cc[cH-]c1  inhibition (thioredoxin reductase human; enzyme activity, inhibitor; CAKI-1; 5 µM, 5 h): 31.6%
